# Assay results of several laboratories.
# “And” joins repeats or separate records; there may be more than shown. ± marks the error that the study gave.
SMILES,cell line,assay,setting,scale,endpoint,value
COc1ccc(NC(=O)c2ccc3[nH]c(-c4ccc(N(C)C)cc4)nc3c2)cn1,HCEC-hTERT,IncuCyte,"concentration not given, 8 h",,dead cell to confluence ratio,2.71 and 37 and 5.43
COc1cccc2c1cc1c3c(cc4c(c32)OCO4)[C@@H]2c3c4c5c(cc6c(c5c5cccc(OC)c35)OCO6)CCN4[C@@H]2N1C (racemic),"H69AR, multidrug-resistant","cytotoxicity, MTT","50 µg/mL, 48 h",,inhibition,< 50%
CCN(CC)CC(=O)Nc1cccc(-n2cc(-c3ccc4ccc(-c5cn(-c6cccc(NC(=O)CN(CC)CC)c6)nn5)cc4c3)nn2)c1,RCC4,"PCR angiogenesis array, measured: EFNB2","5 x IC50, 4 h, normoxia",reference: untreated,fold regulation,-1.34
O=C(C[Se]C(=O)c1cccnc1Nc1cccc(C(F)(F)F)c1)Nc1cccc(C(F)(F)F)c1,NCI60 colon subpanel,NCI60 five-dose screen,,,mean TGI,9.34 µM
CC(C)c1ccc(N(C)c2ccc3c(c2)OCC[C@H]3CNc2cnccc2C(=O)O)cc1,HCC1143,"cell growth or viability, ATP luminescence",7 days,,IC50,≥ 10 µM
CN1CCCNC(=O)c2cccc(c2)C(=O)NCCCN(C)CCCNc2cccc3c2C(=O)c2cccc(c2C3=O)NCCC1,SAS,"RNA-Seq, measured: CBX5 mRNA","1 µM, 6 h",reference: untreated cells,log2 fold change,0.637
Cn1ncc(-c2ccc3c(=O)[nH]nc(CN)c3c2)c1-c1c(F)c(Cl)cc(OC2CC2)c1C#N,Reh,"cell viability, inhibitor, CellTiter-Glo",120 h,,IC50,0.08 µM
CNS(=O)(=O)Nc1nccc(Cc2c(C)c3ccc(Oc4ncccc4F)cc3oc2=O)c1F,MFM-223,cell viability,7 days,,IC50,> 1 µM
O=CCNCCOn1c(=O)n(OCCNCCO)c(=O)n(OCCNCCOn2c(=O)n(OCCNCCO)c(=O)n(OCCNCCO)c2=O)c1=O,A549,"cell growth or viability, MTT","100 µg/mL, 72 h",,viability,34.2%
O=C(Nc1nnc2c1c(-c1ccc(Cl)cc1)nc1sc(=Cc3ccco3)c(=O)n12)c1ccccc1 (mixture of isomers),Malme-3M,SRB,"10 µM, NCI60 single-dose screen",reference: untreated,cell growth,77.8%
N#Cc1cccc(/C=C/C(=O)c2ccc(O)cc2)c1,U-87 MG,measured: GPR137C,concentration not given,reference: untreated,fold change,29.7
C=CC(=O)N1CCCC(n2c(=O)c3ncccc3n(Cc3ccc(Oc4ccccc4)cc3)c2=O)C1 (stereo not drawn),Rec1,measured: IGKV3-20,concentration not given,reference: untreated,log2 fold change,-2.41
COc1cccc(OC)c1-c1cc(C(=O)NC2(C(=O)O)C3CC4CC(C3)CC2C4)nn1-c1ccc(C(=O)N(C)CCOCCN(C)C(=O)[C@H](CCCCNC(=O)[C@H](CC(C)C)NC(=O)C2OC2C(=O)O)NC(=O)CN2CCN(CC(=O)[O-])CCN(CC(=O)[O-])CCN(CC(=O)[O-])CC2)cc1C(C)C.[177Lu+3] (mixture of isomers),HT-29,,"concentration not given, 60 min",reference: added activity,surface-bound fraction,3.41 ± 0.5%
C=CC(=O)N1[C@H](c2ccc3c(c2)OCO3)c2[nH]c3ccccc3c2C[C@@H]1C(=O)NC,rat DRG neurons,,"3.333 µM, 48 h, together with: vincristine 40 nM",,mean neuron degeneration,18.2%
C#CCCCC(F)/C=C/C(=O)NC1(c2ccc(-c3nc4ccn5c(=O)[nH]nc5c4cc3-c3ccccc3)cc2)CCC1 (stereo not drawn),MDA-MB-468,flow cytometry PI,"EC60, 72 h",,sub-G0 cells,0.9%
COc1ccccc1-c1ccncc1C(=O)Nc1nnc(OCc2ccc(Cl)cc2)s1,PEO1 BRCA2-mutant,,"1.00 µM, together with: olaparib 0.25 µM",,colony survival,0%
NC(Cc1ccccc1)C(=O)N1CC(=Cc2ccc(Cl)c(Cl)c2)C(=O)C(=Cc2ccc(Cl)c(Cl)c2)C1 (stereo not drawn),BRD4-HiBiT cells,"BRD4 degradation rescue, inhibitor","4 h, together with: dBET6 500 nM",,EC50,1.97 µM
CCOc1cncc(-c2ccc(NC(=O)C3(c4ccnc(NS(=O)(=O)C5CC5)n4)CCOCC3)nc2)n1,EFO-21,"cell proliferation, CellTiter-Glo",72 h,,IC50,10 µM
CCCC(CCC)C(=O)OCc1cn(-c2cc3ccccc3oc2=O)nn1,UO-31,NCI60 single-dose screen,10 µM,,growth percentage,91.9%
CCN(CC)CCNC(=S)Nc1ccc2nc(N3CCN(CC)CC3)cc(C)c2c1,U2OS HDR-GFP reporter,"homology-directed repair, flow cytometry",20 µM,,GFP-positive cells,5.7%
Cn1ncc2cc(-c3cncc(Cl)c3N3CCC4(CCNC4=O)CC3)ccc21,LS174T,"gene expression, microarray, measured: MFN2 mRNA","concentration not given, 4 h",reference: untreated cells,log2 fold change,-1.63
Cc1ccc(-n2cc(CSc3nc4ccccc4n3Cc3cn(-c4ccc(C)cc4)nn3)nn2)cc1,Caco-2,MTT,62.5 ppm,,cytotoxicity,83.9%
CCNc1cc2c(cc1C)C1(c3cc(C)c(NCC)cc3O2)c2ccccc2C(=O)N1N=Cc1c[c-]c(-c2ccccn2)cc1.Cc1c(C)c(-c2ccc(-c3ccccc3)cc2)[c-](C)c1C.[Cl-].[Ir+3],A549,flow cytometry,"1.0×IC50, 24 h",,JC-1 aggregate cells,96.24 ± 0.6%
O=C(C[Se]C(=O)c1cc2ccccc2s1)Nc1cccc(C(F)(F)F)c1,NCI60 colon subpanel,NCI60 five-dose screen,,,mean TGI,7.06 µM
CC(=O)N[C@@H](CC(=O)O)C(=O)N[C@@H](CCC(=O)O)C(=O)N[C@H](C(=O)N[C@@H](CC(=O)O)C(=O)COC(=O)c1c(C)cccc1C)C(C)C,THP-1 cells expressing FKBP-caspase-11,"pyroptosis, inhibitor","concentration not given, together with: B/B dimerizer",,LDH release,22.8% and 25% and 17.4%
Cc1ncsc1-c1ccc(C(C)NC(=O)C2CC(O)CN2C(=O)C(NC(=O)CCCCCCCCCCN2CCCC(Nc3ncc(Cl)c(Nc4ccccc4S(=O)(=O)C(C)C)n3)C2)C(C)(C)C)cc1 (stereo not drawn),22Rv1,"RNA-seq, measured: ZSWIM4 mRNA",concentration not given,reference: DMSO,log2 fold change,-2.46
O=C(C[Se]C(=O)c1ccc2ccccc2c1)Nc1cccc(C(F)(F)F)c1,NCI60 colon subpanel,cell growth,"10 µM, 48 h, one-dose",,mean growth percent,-44.5%
CSC(=S)N/N=C(\C)c1ccc(Nc2nnc(-c3ccc(Cl)cc3)c3ccccc23)cc1,MCF7,"cell growth or viability, MTT","0.625 µM, 24 h",,viability,12.8%
O=C(O)C1OC(Oc2ccc(-c3oc4ccc(O)cc4c(=O)c3O)cc2)C(O)C(O)C1O (stereo not drawn),MDCKII-UGT1A1/MRP2 cells,"glucuronide efflux, substrate",,,Jmax,8.47 ± 0.33 pmol/mg/min
CCN(C(=O)c1cc(F)ccc1Oc1nncnc1N1CCC2(C1)CN([C@H](CCCN(C)CCOC)C(C)C)C2)C(C)C,SK-N-AS,cell growth,72 h,,GI50,> 10 µM
COC(=O)c1cc(NC2=NC(=O)C(=Cc3ccc(N(C)C)cc3)S2)ccc1OC(C)=O,MCF7,"GC-MS, measured: Butanedioic acid",1 µM,reference: DMSO,metabolite level,-0.18 fold change
CN(C)c1ccc(-n2cc(COC(=O)[C@]3(C)C=C(C(=O)OC(C)(C)C)C(=O)CC3)nn2)cc1,HeLa,quantitative western blot,"concentration not given, 10 (unit not given), together with: EGF",,pERK/ERK ratio,0.214
O=C(NCc1cc(F)cc(F)c1)[C@@]1(O)CCN(c2ccc3[nH]ccc3c2)C1=O,OVXF1023 ovarian cancer cells,"colony formation, soft agar clonogenic",concentration not given,,efficacy,62%
CNC(=O)CCN(Cc1ccc(C(F)F)cc1)C(=O)c1cc2c(OC)ccc(-c3ccc(=O)n(C)c3)c2s1,murine AML cells,"BRD4 chromatin occupancy, ChIP-seq, measured: BRD4 peak","concentration not given, chrX:93416871-93424332",reference: drug over DMSO,log2 fold change,-3.03
O=C(C[Se]C(=O)C12CC3CC(CC(C3)C1)C2)Nc1cccc(C(F)(F)F)c1,NCI60 colon subpanel,NCI60 five-dose screen,,,mean TGI,26.8 µM
CO[C@@H]1[C@@H](OC(N)=O)[C@@H](O)[C@H](Oc2ccc3c(O)c(NC(=O)c4ccc(O)c(CC=C(C)C)c4)c(=O)oc3c2C)OC1(C)C,DLD-1 BRCA2-/-,,"150 µM, replicate 1",,colony count,0.1

# Some of these lines once more:
SMILES,cell line,assay,setting,scale,endpoint,value
O=C(NCc1cc(F)cc(F)c1)[C@@]1(O)CCN(c2ccc3[nH]ccc3c2)C1=O,OVXF1023 ovarian cancer cells,"colony formation, soft agar clonogenic",concentration not given,,efficacy,62%
CNC(=O)CCN(Cc1ccc(C(F)F)cc1)C(=O)c1cc2c(OC)ccc(-c3ccc(=O)n(C)c3)c2s1,murine AML cells,"BRD4 chromatin occupancy, ChIP-seq, measured: BRD4 peak","concentration not given, chrX:93416871-93424332",reference: drug over DMSO,log2 fold change,-3.03
O=C(C[Se]C(=O)C12CC3CC(CC(C3)C1)C2)Nc1cccc(C(F)(F)F)c1,NCI60 colon subpanel,NCI60 five-dose screen,,,mean TGI,26.8 µM
